Measurements from different studies.
Each line is one published result; not all experiments were run side by side.

CC1(C)C(/C=C/C2=C(Cl)C(=C/C=C3/N(CCCCCC(=O)O)c4ccccc4C3(C)C)/C[N+](C)(C)C2)=[N+](CCCCCC(=O)O)c2ccccc21 — result for “molar absorption coefficient”: 192000 M⁻¹ cm⁻¹ (10 mM PBS; pH 7.4).
COc1cc(OC)cc(C2=C3C(C)=C(I)C(C)=[N+]3[B-](F)(F)n3c(/C=C/c4c[nH]c5ccccc45)c(I)c(C)c32)c1: “molar extinction coefficient” about 29000 M⁻¹ cm⁻¹ (DMSO; λmax 636 nm).
Cc1ccc(C(C)C)cc1.[Cl-].[Cl][Ru+].[Ru+].c1ccc(-c2cn(CCCCOc3ccccc3-c3nc4ccccc4s3)nn2)nc1 has a molar conductance of 8 S cm²/mol (DMSO).
Under “molar absorption coefficient”, Nc1ncnc2c1nc(-n1nnc3c1CCC1C(CO)C1CC3)n2C1CC(O)C(CO)O1 (mixture of isomers) is recorded as 18200 M⁻¹ cm⁻¹.
CCn1cc(/C=C/c2sc3ccccc3[n+]2CC)c2ccccc21 gave a molar absorptivity of 49700 M⁻¹ cm⁻¹ (DMSO).
Cc1ccc(C(C)C)cc1.[C-]#[O+].[C-]#[O+].[C-]#[O+].[Cl-].[Cl-].[Cl-].[Re+].[Ru+2].c1cnc(-c2ncccn2)nc1 gave a molar conductivity of 190 S m²/mol (10% aqueous DMSO).
N[C@@H](CC(=O)O)C(=O)OC(C(=O)O)c1ccc(Br)cc1[N+](=O)[O-] (mixture of isomers): “molar extinction coefficient” 520 M⁻¹ cm⁻¹ (wavelength 355 nm).
COc1c(C[C@H](C)O)c2c3c(C[C@H](C)O)c(OC)c(=O)c4c(O)cc(OC)c(c5c(OC)cc(O)c(c1=O)c52)c43: “molar absorption coefficient” 120 M⁻¹ cm⁻¹ (at 670 nm).
Nc1ncnc2c1nc(-n1nnc3c1CCC1C(CO)C1CC3)n2C1OC(CO)C(O)C1O (mixture of isomers) — result for “molar absorption coefficient”: 21100 M⁻¹ cm⁻¹.
For CCCc1c(OC)c(=O)c2c(O)c(/C=C/c3ccccc3)c(OC)c3c4c(OC)c(/C=C/c5ccccc5)c(O)c5c(=O)c(OC)c(CCC)c(c1c23)c54, “molar absorption coefficient” read 5180 M⁻¹ cm⁻¹ (at 670 nm).
Under “molar absorption coefficient”, Nc1nc(-n2nnc3c2CCC2C(CO)C2CC3)nc2c1ncn2C1OC(CO)C(O)C1O (mixture of isomers) is recorded as 19100 M⁻¹ cm⁻¹.
For CCCc1c(OC)c(=O)c2c(O)cc(OC)c3c4c(OC)cc(O)c5c(=O)c(OC)c(CCC)c(c1c23)c54, “molar absorption coefficient” read 480 M⁻¹ cm⁻¹ (at 670 nm).
CCn1cc(/C=C/c2ccc3ccccc3[n+]2CC)c2ccccc21 gave a molar absorptivity of 22400 M⁻¹ cm⁻¹ (PBS).
With Cc1c(C)c(C)[c-](C)c1C.[C-]#[O+].[C-]#[O+].[C-]#[O+].[Cl-].[Cl-].[Cl-].[Ir+3].[Re+].c1cnc(-c2ncccn2)nc1 the molar conductivity was 195 S m²/mol (10% aqueous DMSO).
For CCCc1c(OC)c(=O)c2c(O)c(Br)c(OC)c3c4c(OC)c(Br)c(O)c5c(=O)c(OC)c(CCC)c(c1c23)c54, “molar absorption coefficient” read 1200 M⁻¹ cm⁻¹ (at 670 nm).
